Measured values pooled from the literature.
Lines come from different studies, so protocols differ. Numbers after ± are the reported error. In brackets after ≈: the same amount, converted by molar mass.
PTGS2: Prostaglandin G/H synthase 2 (PTGS2, Homo sapiens, UniProt P35354)
UniProt P35354, sequence (whole entry, looked up): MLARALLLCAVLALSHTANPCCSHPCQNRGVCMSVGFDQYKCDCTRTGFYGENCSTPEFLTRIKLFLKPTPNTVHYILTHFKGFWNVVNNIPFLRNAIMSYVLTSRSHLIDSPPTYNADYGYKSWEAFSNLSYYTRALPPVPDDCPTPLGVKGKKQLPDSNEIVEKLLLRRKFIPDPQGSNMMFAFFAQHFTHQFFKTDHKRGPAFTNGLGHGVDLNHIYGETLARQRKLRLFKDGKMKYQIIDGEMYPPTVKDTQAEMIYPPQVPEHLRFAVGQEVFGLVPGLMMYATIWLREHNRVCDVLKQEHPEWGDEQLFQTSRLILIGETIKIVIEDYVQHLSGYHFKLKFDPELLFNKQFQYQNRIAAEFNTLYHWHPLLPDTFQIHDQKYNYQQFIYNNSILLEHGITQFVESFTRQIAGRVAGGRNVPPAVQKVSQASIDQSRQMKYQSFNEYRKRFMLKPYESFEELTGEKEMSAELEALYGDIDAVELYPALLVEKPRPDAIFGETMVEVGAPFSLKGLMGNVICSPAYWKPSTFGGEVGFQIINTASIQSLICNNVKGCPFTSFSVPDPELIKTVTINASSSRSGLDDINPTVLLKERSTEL
CPL: CPL (Toxoplasma gondii, UniProt Q6DMN0)
PDE2A: cGMP-dependent 3',5'-cyclic phosphodiesterase (PDE2A, Homo sapiens, UniProt O00408)
UniProt O00408, sequence (whole entry, looked up): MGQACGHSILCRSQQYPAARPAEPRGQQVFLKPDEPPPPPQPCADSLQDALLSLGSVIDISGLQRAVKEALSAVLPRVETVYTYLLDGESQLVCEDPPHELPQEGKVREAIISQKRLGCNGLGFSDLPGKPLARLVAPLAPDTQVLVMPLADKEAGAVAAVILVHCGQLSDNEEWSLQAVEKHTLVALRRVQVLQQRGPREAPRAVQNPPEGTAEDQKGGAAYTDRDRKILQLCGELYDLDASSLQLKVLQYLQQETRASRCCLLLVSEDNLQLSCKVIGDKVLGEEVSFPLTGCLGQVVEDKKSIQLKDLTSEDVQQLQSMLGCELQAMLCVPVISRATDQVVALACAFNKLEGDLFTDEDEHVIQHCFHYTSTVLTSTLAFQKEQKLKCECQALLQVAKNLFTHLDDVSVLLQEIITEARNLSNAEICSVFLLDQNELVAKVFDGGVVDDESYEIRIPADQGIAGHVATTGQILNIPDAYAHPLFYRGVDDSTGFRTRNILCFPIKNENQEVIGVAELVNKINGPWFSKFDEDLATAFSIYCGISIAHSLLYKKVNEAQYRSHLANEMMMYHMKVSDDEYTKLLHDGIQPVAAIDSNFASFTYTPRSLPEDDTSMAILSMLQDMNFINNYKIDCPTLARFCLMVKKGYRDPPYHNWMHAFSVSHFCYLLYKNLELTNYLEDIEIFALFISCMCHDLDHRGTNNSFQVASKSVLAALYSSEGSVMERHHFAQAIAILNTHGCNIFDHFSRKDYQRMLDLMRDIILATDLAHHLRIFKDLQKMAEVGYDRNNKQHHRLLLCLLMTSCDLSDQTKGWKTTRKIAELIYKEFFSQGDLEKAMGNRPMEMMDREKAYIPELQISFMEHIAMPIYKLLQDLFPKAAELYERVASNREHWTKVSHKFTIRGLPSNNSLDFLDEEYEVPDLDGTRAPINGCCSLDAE
UniProt P07237, sequence (whole entry, looked up): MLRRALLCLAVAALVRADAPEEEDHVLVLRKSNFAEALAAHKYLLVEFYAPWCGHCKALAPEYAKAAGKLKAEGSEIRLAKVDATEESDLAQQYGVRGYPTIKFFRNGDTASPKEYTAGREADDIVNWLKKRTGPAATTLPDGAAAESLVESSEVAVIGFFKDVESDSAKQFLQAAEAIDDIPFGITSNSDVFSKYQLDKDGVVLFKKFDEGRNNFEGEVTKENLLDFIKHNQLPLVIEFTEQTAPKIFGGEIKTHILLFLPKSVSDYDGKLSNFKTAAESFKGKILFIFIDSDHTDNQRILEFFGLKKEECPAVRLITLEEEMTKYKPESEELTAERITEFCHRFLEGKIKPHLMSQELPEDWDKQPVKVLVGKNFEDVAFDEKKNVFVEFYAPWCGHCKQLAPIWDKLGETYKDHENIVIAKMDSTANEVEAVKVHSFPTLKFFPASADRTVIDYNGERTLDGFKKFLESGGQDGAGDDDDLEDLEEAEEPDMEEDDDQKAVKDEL
UniProt P35462, sequence (whole entry, looked up): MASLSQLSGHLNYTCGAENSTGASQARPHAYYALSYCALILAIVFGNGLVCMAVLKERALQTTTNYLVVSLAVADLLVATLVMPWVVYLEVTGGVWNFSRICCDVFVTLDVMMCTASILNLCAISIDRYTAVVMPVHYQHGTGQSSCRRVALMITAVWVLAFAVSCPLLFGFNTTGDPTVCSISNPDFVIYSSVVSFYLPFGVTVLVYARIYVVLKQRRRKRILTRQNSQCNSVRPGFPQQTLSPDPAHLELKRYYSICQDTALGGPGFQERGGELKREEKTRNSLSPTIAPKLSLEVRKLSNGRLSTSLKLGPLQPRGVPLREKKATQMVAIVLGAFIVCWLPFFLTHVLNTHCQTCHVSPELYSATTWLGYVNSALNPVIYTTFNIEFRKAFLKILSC
UniProt P17706, sequence (whole entry, looked up): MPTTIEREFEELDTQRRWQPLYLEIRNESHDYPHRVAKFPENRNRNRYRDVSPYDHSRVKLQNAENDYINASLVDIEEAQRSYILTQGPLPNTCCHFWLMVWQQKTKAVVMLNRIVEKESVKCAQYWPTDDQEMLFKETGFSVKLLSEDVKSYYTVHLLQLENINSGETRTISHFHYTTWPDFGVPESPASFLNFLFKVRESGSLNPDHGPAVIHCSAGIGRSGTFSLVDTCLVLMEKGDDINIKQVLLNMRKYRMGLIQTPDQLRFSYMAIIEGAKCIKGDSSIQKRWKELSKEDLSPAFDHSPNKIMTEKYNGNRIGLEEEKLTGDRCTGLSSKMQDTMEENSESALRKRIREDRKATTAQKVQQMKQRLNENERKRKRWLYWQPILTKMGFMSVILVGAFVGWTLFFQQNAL
UniProt P13569, sequence (whole entry, looked up): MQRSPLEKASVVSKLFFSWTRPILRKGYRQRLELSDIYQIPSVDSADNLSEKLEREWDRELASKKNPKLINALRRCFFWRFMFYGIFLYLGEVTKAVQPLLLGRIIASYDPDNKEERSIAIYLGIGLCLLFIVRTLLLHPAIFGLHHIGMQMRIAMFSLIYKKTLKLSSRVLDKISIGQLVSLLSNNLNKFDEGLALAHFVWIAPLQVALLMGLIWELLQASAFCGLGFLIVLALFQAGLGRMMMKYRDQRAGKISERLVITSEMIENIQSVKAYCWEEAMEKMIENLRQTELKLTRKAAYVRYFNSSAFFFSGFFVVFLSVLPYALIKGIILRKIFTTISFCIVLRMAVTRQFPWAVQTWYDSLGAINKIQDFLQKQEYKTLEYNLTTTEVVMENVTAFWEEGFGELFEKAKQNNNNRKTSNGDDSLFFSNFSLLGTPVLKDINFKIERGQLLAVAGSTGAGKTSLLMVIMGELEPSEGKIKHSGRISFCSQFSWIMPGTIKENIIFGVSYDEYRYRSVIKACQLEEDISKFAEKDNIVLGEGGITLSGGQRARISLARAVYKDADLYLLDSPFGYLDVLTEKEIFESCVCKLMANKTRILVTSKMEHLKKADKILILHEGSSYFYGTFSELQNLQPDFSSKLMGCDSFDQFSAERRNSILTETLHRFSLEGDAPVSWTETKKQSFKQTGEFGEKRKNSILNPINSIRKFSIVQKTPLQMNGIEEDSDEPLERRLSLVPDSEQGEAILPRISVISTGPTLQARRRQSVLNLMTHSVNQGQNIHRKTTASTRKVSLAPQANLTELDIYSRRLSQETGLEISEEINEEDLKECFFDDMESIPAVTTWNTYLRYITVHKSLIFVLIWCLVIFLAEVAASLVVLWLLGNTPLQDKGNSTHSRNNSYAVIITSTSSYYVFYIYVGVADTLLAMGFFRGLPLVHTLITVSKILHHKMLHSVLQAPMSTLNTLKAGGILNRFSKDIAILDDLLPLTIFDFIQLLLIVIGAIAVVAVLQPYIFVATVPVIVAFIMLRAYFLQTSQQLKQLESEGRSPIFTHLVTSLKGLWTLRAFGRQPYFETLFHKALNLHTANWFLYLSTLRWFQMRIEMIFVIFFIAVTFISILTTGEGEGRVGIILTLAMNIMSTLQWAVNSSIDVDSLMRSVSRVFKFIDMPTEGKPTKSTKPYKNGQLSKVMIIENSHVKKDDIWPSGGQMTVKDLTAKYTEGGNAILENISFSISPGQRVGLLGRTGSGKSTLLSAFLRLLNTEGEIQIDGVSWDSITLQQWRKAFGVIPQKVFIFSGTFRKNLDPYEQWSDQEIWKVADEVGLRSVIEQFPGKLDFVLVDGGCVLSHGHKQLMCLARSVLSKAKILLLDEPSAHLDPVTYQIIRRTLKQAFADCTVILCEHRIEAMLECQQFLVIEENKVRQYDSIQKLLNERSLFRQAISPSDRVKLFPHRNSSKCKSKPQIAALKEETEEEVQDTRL

| Structure (SMILES) | tested on | assay | test system | setting | scale | measurement | value |
| --- | --- | --- | --- | --- | --- | --- | --- |
| N#CC1=C(N)n2c(nnc2-c2ccncc2)NC1c1ccc(Br)cc1 (stereo not shown) | PTGS2 | enzyme activity | – | – | baseline: IC50 COX-1 over IC50 COX-2 | selectivity ratio | 5 |
| COc1cc(C(=O)NCCOCCOCCOCCNC(=O)c2ccc([18F])nc2)ccc1NC(=O)C1NC(CC(C)(C)C)C(C#N)(c2ccc(Cl)cc2F)C1c1cccc(Cl)c1F (stereo not shown) | SJSA-1 tumour model | – | host not given, brain | 1 h, tumour-bearing | – | tracer uptake | 0.45 %ID/g |
| CC(C)CCN(Cc1cccc(C(F)(F)F)c1)c1nc(C#N)nc(N2CCOCC2)n1 | CPL | enzyme activity, inhibitor | – | – | baseline: human over Toxoplasma IC50 | selectivity ratio | 0.2 |
| CC(C)[C@H](NC(=O)[C@H](CCC(=O)O)NC(=O)[C@@H](NC(=O)[C@@H](C)c1cccc(C(=O)c2ccccc2)c1)C(C)C)C(=O)N[C@@H](CCC(=O)O)C(=O)O | PTGS2 | fluorescence | – | – | baseline: COX-1 IC50 over COX-2 IC50 | selectivity ratio | 4.2 |
| Nc1nc(Cl)nc2c1ncn2Cc1cc(OCC(F)F)cc(OC(F)F)c1 | PDE2A | enzyme activity, inhibitor | – | – | baseline: PDE2A over PDE8A1 | selectivity ratio | 392 fold |
| CCCCc1ccc(S(=O)(=O)N2CC2C(=O)OC)cc1 (stereo not shown) | P4HB (Homo sapiens, UniProt P07237) | insulin reduction, inhibitor | – | – | baseline: IC50 PDIA1 over IC50 PDIA3 | selectivity ratio | 0.0004 to 0.0035 |
| CC(=O)c1cc2ccccc2oc1=Nc1nccs1 | PTGS2 | enzyme activity, inhibitor, enzyme immunoassay | – | – | baseline: IC50 COX-1 over IC50 COX-2 | selectivity ratio | 3.03 |
| CCCCCCCCC(=O)NCc1ccc(O)c(OC)c1 | mouse mAb 1-F12 | antibody binding, indirect competitive ELISA | – | with: coating antigen hapten 5-OVA | – | IC50 | 0.0881 µg/mL (≈ 0.3 µM) |
| CC(C)(C)c1cc(C(C)(C)C)c(-n2cc(-c3cnc4ccccc4c3O)nn2)cc1O | CFTR (Homo sapiens, UniProt P13569) | inside-out patch clamp | – | 0.2 nM | – | current increase | ~7% |
| CC(C)CCN(Cc1ccccc1)c1nc(C#N)nc(N2CCOCC2)n1 | CPL | enzyme activity, inhibitor | – | – | baseline: human over Toxoplasma IC50 | selectivity ratio | 0.6 |
| CCCCCCCCCCCC1=C(O)C(=O)C=C(NCCN2CCOCC2)C1=O | PTGS2 | enzyme activity, enzyme immunoassay | – | – | baseline: COX-1 IC50 over COX-2 IC50 | selectivity ratio | 2.06 |
| N=C(N)NCCC[C@@H]1NC(=O)[C@H](CCCCNC(=O)CC[C@H](NC(=O)CCOCCOCCOCCOCCNC(=O)CN2CCN(CC(=O)O)CCN(CC(=O)O)CCN(CC(=O)O)CC2)C(=O)NCCCC[C@@H]2NC(=O)[C@@H](Cc3ccccc3)NC(=O)[C@H](CC(=O)O)NC(=O)CNC(=O)[C@H](CCCNC(=N)N)NC2=O)NC(=O)[C@@H](Cc2ccccc2)NC(=O)[C@H](CC(=O)O)NC(=O)CNC1=O [indium-111 labelled] | – | – | athymic nude mice, female, U-87 MG glioma xenograft, tumour and muscle | intravenous, 1 h | baseline: tumour over muscle | tumour to tissue ratio | 6.18 ± 0.49 |
| COc1ccccc1N1CCN(CCCCNC(=O)/N=N/c2ccc(F)cc2)CC1 | DRD3 (Homo sapiens, UniProt P35462) | radioligand binding | CHO membranes | with: [3H]spiperone | baseline: Ki 5-HT1A over Ki D3 | selectivity ratio | 1.8 |
| CN[C@](C)(C[18F])C(=O)O | SK-OV-3 tumour model | – | host not given, kidney | 1 h, tumour-bearing | – | tracer uptake | 6.9 %ID/g |
| CC(C)CCN(Cc1ccncc1)c1nc(C#N)nc(N2CCOCC2)n1 | CPL | enzyme activity, inhibitor | – | – | baseline: human over Toxoplasma IC50 | selectivity ratio | 0.4 |
| N[C@@H](CCC(=O)N[C@@H](CS[Se]Cc1ccc(C(=O)Nc2cc(C(F)(F)F)c(Br)c(C(F)(F)F)c2)cc1)C(=O)NCC(=O)O)C(=O)O | PTPN2 (Homo sapiens, UniProt P17706) | enzyme activity | – | with: pNPP, GSH 1 mM | baseline: IC50 PTPN2 over mPTPA | selectivity ratio | > 100 |
| NCCCC[C@H](NC(=O)CNC(=O)CNC(=O)[C@H](CCCCN)NC(=O)CNC(=O)CNC(=O)CNC(=O)[C@H](CCCCN)NC(=O)CNC(=O)CNC(=O)[C@H](CCCCN)NC(=O)CNC(=O)CNC(=O)CNC(=O)[C@H](CCCCN)NC(=O)CNC(=O)CNC(=O)[C@H](CCCCN)NC(=O)CNC(=O)CNC(=O)CNC(=O)[C@H](CCCCN)NC(=O)CNC(=O)CNC(=O)[C@H](CCCCN)NC(=O)[C@H](CO)NC(=O)[C@H](Cc1ccc(O)cc1)NC(=O)CNC(=O)CNC(=O)CN)C(=O)NCC(=O)O | – | binding, SPR two-state model | rVλ6Wil fibrils | 300 nM, pH 7.4 | – | ka1 | 75000 M⁻¹ s⁻¹ |
| CC(C)(F)CCN(Cc1ccc(F)cc1)c1nc(C#N)nc(N2CCOCC2)n1 | CPL | enzyme activity, inhibitor | – | – | baseline: human over Toxoplasma IC50 | selectivity ratio | 1.5 |
| N#CC1=C(N)n2c(nnc2-c2ccccc2)NC1c1ccc(Cl)cc1 (stereo not shown) | PTGS2 | enzyme activity | – | – | baseline: IC50 COX-1 over IC50 COX-2 | selectivity ratio | 9 |
| COCCCN1CCc2c(Cc3ccc(Cl)cc3)[nH]c3c(OC(F)F)ccc(c23)C1=O | PDE2A | enzyme activity | – | – | baseline: IC50 PDE5A1 over PDE2A | selectivity ratio | > 1200 |
| C[C@@H](NC(=O)[C@@H](CCC(N)=O)NC(=O)[C@@H](C)NC(=O)[C@@H](CCCCN)NC(=O)[C@@H](CCC(N)=O)NC(=O)[C@@H](C)NC(=O)[C@@H](CCCCN)NC(=O)[C@@H](CCC(N)=O)NC(=O)[C@@H](C)NC(=O)[C@@H](CCC(N)=O)NC(=O)[C@@H](CCCCN)NC(=O)[C@@H](C)NC(=O)[C@@H](CCC(N)=O)NC(=O)[C@@H](CCCCN)NC(=O)[C@@H](C)NC(=O)[C@@H](CCC(N)=O)NC(=O)[C@@H](C)NC(=O)[C@@H](CCCCN)NC(=O)[C@@H](CCC(N)=O)NC(=O)[C@@H](C)NC(=O)[C@@H](CCCCN)NC(=O)[C@@H](CO)NC(=O)[C@@H](Cc1ccc(O)cc1)NC(=O)CNC(=O)CNC(=O)CN)C(=O)N[C@H](CCCCN)C(=O)N[C@H](CCC(N)=O)C(=O)N[C@H](C)C(=O)N[C@H](CCCCN)C(=O)N[C@H](CCC(N)=O)C(=O)O | – | binding, SPR two-state model | rVλ6Wil fibrils | 300 nM, pH 7.4 | – | ka1 | 550000 M⁻¹ s⁻¹ |
| Cc1ccc(C2Nc3nnc(-c4ccncc4)n3C(N)=C2C#N)cc1 (stereo not shown) | PTGS2 | enzyme activity | – | – | baseline: IC50 COX-1 over IC50 COX-2 | selectivity ratio | 5 |

Some of these lines once more:
| Structure (SMILES) | tested on | assay | test system | setting | scale | measurement | value |
| --- | --- | --- | --- | --- | --- | --- | --- |
| C[C@@H](NC(=O)[C@@H](CCC(N)=O)NC(=O)[C@@H](C)NC(=O)[C@@H](CCCCN)NC(=O)[C@@H](CCC(N)=O)NC(=O)[C@@H](C)NC(=O)[C@@H](CCCCN)NC(=O)[C@@H](CCC(N)=O)NC(=O)[C@@H](C)NC(=O)[C@@H](CCC(N)=O)NC(=O)[C@@H](CCCCN)NC(=O)[C@@H](C)NC(=O)[C@@H](CCC(N)=O)NC(=O)[C@@H](CCCCN)NC(=O)[C@@H](C)NC(=O)[C@@H](CCC(N)=O)NC(=O)[C@@H](C)NC(=O)[C@@H](CCCCN)NC(=O)[C@@H](CCC(N)=O)NC(=O)[C@@H](C)NC(=O)[C@@H](CCCCN)NC(=O)[C@@H](CO)NC(=O)[C@@H](Cc1ccc(O)cc1)NC(=O)CNC(=O)CNC(=O)CN)C(=O)N[C@H](CCCCN)C(=O)N[C@H](CCC(N)=O)C(=O)N[C@H](C)C(=O)N[C@H](CCCCN)C(=O)N[C@H](CCC(N)=O)C(=O)O | – | binding, SPR two-state model | rVλ6Wil fibrils | 300 nM, pH 7.4 | – | ka1 | 550000 M⁻¹ s⁻¹ |
